Results from different studies.
Protocols differ between the studies behind these lines. Values joined by “and” are separate records of one study, mostly repeats; a detail may differ. ± marks the error that the study gave.

| Structure (SMILES) | assay | test system | conditions | how to read | measurement | value |
| --- | --- | --- | --- | --- | --- | --- |
| C[C@]12C[C@H](c3ccc(S(C)(=O)=O)cc3)C3=C4CCC(=O)C=C4CC[C@H]3[C@@H]1CC[C@@]2(O)C(F)(F)C(F)(F)F | item: compound (parent) | healthy human volunteers, pooled plasma | oral, 5 mg daily, day 28, 240 h |  | plasma concentration | 0.594 ng/mL |
| Cc1nn(-c2nc3c(F)cc(F)cc3s2)c(O)c1C(c1ccc(C(F)(F)F)cc1)c1c(C)nn(-c2nc3c(F)cc(F)cc3s2)c1O |  | ICR mouse, plasma | intravenous, 5 mg/kg |  | MRT(0-last) | 5.41 h and 8.78 h and 4.6 h |
| CN(O)C(=O)CCC(=O)NCCCN(CCCCN(CCCNC(=O)CCC(=O)N(C)O)C(=O)CCC(=O)N(C)O)C(=O)CCC(=O)N(C)O.[89Zr] | radio-TLC | aqueous buffer | 1 d, pH 8.5, 37 °C, 89Zr-labelled complex, added: DTPA 100-fold excess |  | intact complex | 99.7 ± 0.4% |
| COc1cccc(OC)c1-c1cc(C(=O)NC2(C(=O)O)C3CC4CC(C3)CC2C4)nn1-c1ccc(C(=O)N(C)CCCN(C)CCCN(C)C(=O)[C@H](CCCCNC(=O)[C@H](CC(C)C)NC(=O)C2OC2C(=O)O)NC(=O)CN2CCN(CC(=O)[O-])CCN(CC(=O)[O-])CCN(CC(=O)[O-])CC2)cc1C(C)C.[177Lu+3] (mixture of isomers) |  | mouse HT-29 xenograft | 4 h, biodistribution | reference: tumour over large intestine | tumour-to-large intestine ratio | 9.66 |
| O=C(Nc1cnccc1-c1ccc([18F])nc1)c1ccnc(NC(=O)C2CC2)c1 |  | FVB/NJ mouse, both sexes, brain | intravenous, 25 min, added: tariquidar 15 mg/kg iv |  | SUV | 0.16 |
| C=C(NC(=O)c1csc(-c2nc3c(cc2O)-c2nc(cs2)C(=O)NC(C(C)O)C(=O)NC(=C(C)OC)c2nc(cs2)C(=O)NC2c4nc(cs4)C(=O)NC(COC(=O)c4c5c6c(cccc6n4O)COC(=O)C(OC4CC(C)(O)C(N(C)C)C(C)O4)C2OC5)c2nc-3cs2)n1)C(N)=O (stereo not shown) |  | ICR mice, Streptococcus pneumoniae ATCC 49169 infected, immunocompromised, blood | intravenous, 8 mg/kg/day once daily |  | half-life | 4.9 h |
| CC[C@H](C)[C@@H]1NC(=O)[C@H](Cc2ccc(O)cc2)NC(=O)CCCSC[C@@H](C(=O)N(CC(=O)N[C@@H](CC(C)C)C(=O)NCC(N)=O)Cc2ccc(F)cc2)NC(=O)[C@H](CC(N)=O)NC(=O)[C@H](CCC(N)=O)NC1=O |  | human | intranasal, 15 µg single dose |  | subjects with any TEAE | 33% |
| C/C(N)=N/C(=N\S(=O)(=O)c1ccc(C(F)(F)F)cc1)N1C[C@H](c2ccccc2)C(c2ccc(Cl)cc2)=N1 |  | male C57BL/6 mouse, kidney | intravenous, 10 mg/kg |  | half-life | 2.7 h |
| O=C(c1ccccc1)N1C(c2ccc(OCC3CCN(CCCF)C3)cc2)c2ccc(O)cc2CC12CC2 (stereo not shown) |  | C57BL/6J mice, plasma | intraperitoneal, 25 mg/kg |  | AUC extrapolated percentage | 0.333% |
| CCC1CNC(CC)CN(C(C(=O)[O-])c2ccc(C(=O)[O-])cc2)C(CC)CN(CC(=O)[O-])C(CC)CN1.[Mn+2] (stereo not shown) | ICP-MS | BALB/c mice, kidney | intravenous, 0.05 mmol/kg, 30 min | reference: injected dose | Mn uptake | 1.37 ± 0.11% |
| Cc1noc(C)c1Cn1cc(N2C(=O)CN(Cc3cccc(OS(=O)(=O)O)c3)C2=O)cn1 |  | Sprague-Dawley rat, male | oral, 10 mg/kg of parent drug, 2 h |  | plasma concentration | 1720 ng/mL |
| COc1cccc(OC)c1-c1cc(C(=O)NC2(C(=O)O)C3CC4CC(C3)CC2C4)nn1-c1ccc(C(=O)N(C)CCCN(C)C(=O)[C@H](CCCCNC(=O)[C@H](CC(C)C)NC(=O)C2OC2C(=O)O)NC(=O)CN2CCN(CC(=O)[O-])CCN(CC(=O)[O-])CCN(CC(=O)[O-])CC2)cc1C(C)C.[177Lu+3] (mixture of isomers) |  | mouse, HT-29 xenograft | 168 h post injection, biodistribution | reference: tumour over lung uptake | tumour-to-lung ratio | 3.57 |
| CSCC[C@H](N)C(=O)N[C@@H](CO)C(=O)N[C@H](C(=O)N[C@@H](C)C(=O)NCC(=O)N[C@@H](CC(C)C)C(=O)N[C@@H](CCCCN)C(=O)N[C@@H](CCCCN)C(=O)N[C@@H](CCC(N)=O)C(=O)N[C@@H](Cc1c[nH]c2ccccc12)C(=O)N[C@@H](Cc1ccc(O)cc1)C(=O)N[C@@H](CCCCN)C(=O)N[C@@H](C)C(=O)N[C@@H](CO)C(=O)N[C@@H](CCC(N)=O)C(=O)N[C@@H](CC(C)C)C(=O)N[C@H](C(=O)N[C@@H](CO)C(=O)N[C@@H](CCC(=O)O)C(=O)N[C@@H](CCCCN)C(=O)N[C@H](C(=O)NCC(=O)NCC(=O)N[C@@H](C)C(N)=O)C(C)C)C(C)C)C(C)C |  | water |  |  | folding free energy | 5.24 kcal/mol |

A few entries again:
| Structure (SMILES) | assay | test system | conditions | how to read | measurement | value |
| --- | --- | --- | --- | --- | --- | --- |
| COc1cccc(OC)c1-c1cc(C(=O)NC2(C(=O)O)C3CC4CC(C3)CC2C4)nn1-c1ccc(C(=O)N(C)CCCN(C)C(=O)[C@H](CCCCNC(=O)[C@H](CC(C)C)NC(=O)C2OC2C(=O)O)NC(=O)CN2CCN(CC(=O)[O-])CCN(CC(=O)[O-])CCN(CC(=O)[O-])CC2)cc1C(C)C.[177Lu+3] (mixture of isomers) |  | mouse, HT-29 xenograft | 168 h post injection, biodistribution | reference: tumour over lung uptake | tumour-to-lung ratio | 3.57 |
